Measurements gathered from unrelated publications.
Each line is one published result; not all experiments were run side by side. “And” joins repeats or separate records; there may be more than shown. ± gives the spread as reported.
TOP2A: DNA topoisomerase 2-alpha (TOP2A, Homo sapiens, UniProt P11388)
USP20 ZnF-UBD domain: Ubiquitin carboxyl-terminal hydrolase 20, ZnF-UBD domain (USP20, Homo sapiens, UniProt Q9Y2K6)

SMILES | tested on | test | test system | setting | how to read | endpoint | value
CC(=O)Oc1ccc([N+](=O)[O-])cc1 | Methylesterase 9 (MES9, Arabidopsis thaliana, UniProt O23171) | substrate, p-nitrophenyl ester |  |  |  | kcat | 134 ± 10.4 s⁻¹
O=C(Nc1cccc2c(=O)cc(-c3nnn[nH]3)oc12)c1ccc(OCCCCc2ccccc2)cc1 | LRRC8A/LRRC8C (Homo sapiens, UniProt Q8IWT6+Q8TDW0, M48D/T48D) | ion current, whole-cell patch clamp | HCT LRRC8-/- cells | 0.3 µM, -100 mV, T48D/M48D heteromers |  | inhibition | 5.41% and -6.02% and -2.66%
CCCCCCCCC(=O)c1cc(O)c(O)c(O)c1 | Nuclear receptor subfamily 5 group A member 2 (NR5A2, Homo sapiens, UniProt O00482) | reporter gene, Gal4 hybrid reporter |  | 10 µM | reference: vehicle | activation | 1.14 fold
CC(=O)N[C@H](C(=O)N1C[C@H](O)C[C@H]1C(=O)NCc1ccc(-c2scnc2C)cc1)C(C)(C)SCCCCCCNC(=O)C[C@@H]1N=C(c2ccc(Cl)cc2)c2c(sc(C)c2C)-n2c(C)nnc21 | Bromodomain-containing protein 3, BD1 (BRD3, Homo sapiens, UniProt Q15059) | binding, ITC |  | 25 °C, compound in cell, protein in syringe |  | −TΔS | 8.2 ± 0.2 kcal/mol
CC(C)OCCn1c(=S)[nH]c(=O)c2[nH]ccc21 | Myeloperoxidase (MPO, Homo sapiens, UniProt P05164) | H2O2 consumption, inhibitor, H2O2 electrode |  | 0.226 µM, 0.1 s |  | H2O2 concentration | -1.24 µM
Cc1nn(CCc2ccccc2)c2ncc(C(=O)NCc3ccccc3F)c(Cl)c12 | Prolyl endopeptidase (PREP, Homo sapiens, UniProt P48147) | intact protein MS |  | 50 µM, 4 h, 37 °C |  | protein adduct formation | 20%
O=[N+]([O-])c1cc(C(F)(F)F)ccc1NCc1ccco1 | Endothelial PAS domain-containing protein 1, PAS-B domain (EPAS1, Homo sapiens, UniProt Q99814, N288Q) | binding, ITC, reverse mode |  |  |  | TΔS | -0.68 ± 0.03 kcal/mol
CCOc1ccc(NC(=O)O[C@H](Cn2nc(C(C)C)cc2C(C)C)C(C)C)cc1 | Neuronal acetylcholine receptor; alpha4/beta2, (α4)2(β2)3 stoichiometry (Homo sapiens, UniProt P17787+P43681) | ACh-evoked current, two-electrode voltage clamp |  | 1 µM, high-sensitivity stoichiometry, added: ACh 10 µM | reference: ACh alone | current | 94 ± 6%
CC(=O)c1c(C)c2cnc(Nc3ccc(N4CCN(CCCOc5ccc(CN6CCC(c7ccc8c(c7)CN(C7CCC(=O)NC7=O)C8=O)CC6)cc5)CC4)cn3)nc2n(C2CCCC2)c1=O (centres unmarked) | Cyclin-dependent kinase 4 (CDK4, Homo sapiens, UniProt P11802) | protein degradation, degrader, immunoblot | Jurkat | 4 h |  | Dmax | 45%
CCCCC[C@H](O)/C=C/[C@H]1[C@H](O)CC(=O)[C@@H]1C/C=C\CCCC(=O)O | Cysteinyl leukotriene receptor 2 (CYSLTR2, Homo sapiens, UniProt Q9NS75) | GloSensor | HEK293T | 1 nM |  | time to peak cAMP | ≤ 120 min
CC[C@H](C)[C@@H]1NC(=O)[C@H](C)NC(=O)[C@H]([C@@H](C)CC)NC(=O)[C@H](CCC(N)=O)NC(=O)[C@H](C)NC(=O)[C@H](CCCNC(=N)N)NC(=O)[C@H](C(C)C)NC(=O)[C@H](CC(C)C)NC(=O)[C@H](CCC(=O)O)NC(=O)[C@H](CCCNC(=N)N)NC(=O)CNC(=O)[C@@H](NC(=O)[C@H](CC(C)C)NC(=O)[C@H](CCCCN)NC(=O)[C@@H](NC(=O)[C@@H](NC(=O)[C@H](CCC(=O)O)NC(=O)[C@H](CCC(=O)O)NC(=O)[C@H](CCSC)NC(=O)[C@H](Cc2c[nH]c3ccccc23)NC(=O)[C@H](CO)NC(=O)[C@@H](N)CC(=O)O)C(C)C)[C@@H](C)CC)CSSC[C@@H]2NC(=O)[C@@H](NC(=O)[C@H](CCCCN)NC(=O)[C@H](CC(N)=O)NC(=O)[C@H](C)NC(=O)[C@H](CC(C)C)NC(=O)[C@H](C)NC(=O)[C@H](CO)NC(=O)[C@H](Cc3ccc(O)cc3)NC(=O)[C@H](CC(C)C)NC(=O)[C@H](CCC(N)=O)NC(=O)c3ccc(-c4c5ccc(=[N+](C)C)cc-5oc5cc(N(C)C)ccc45)c(C(=O)[O-])c3)CSSC[C@H](NC(=O)CNC(=O)[C@H](C(C)C)NC(=O)[C@H](Cc3c[nH]cn3)NC2=O)C(=O)N[C@@H]([C@@H](C)O)C(=O)N[C@@H](CCCCN)C(=O)N[C@@H](CCCNC(=N)N)C(=O)N[C@@H](CO)C(=O)N[C@@H](CC(C)C)C(=O)N[C@@H](C)C(=O)N[C@@H](CCCNC(=N)N)C(=O)N[C@@H](Cc2ccccc2)C(=O)N[C@H](C(=O)O)CSSC[C@@H](C(=O)NCC(=O)N[C@@H](CCSC)C(=O)N[C@@H](CO)C(=O)N[C@H](C(=O)N[C@@H](Cc2c[nH]c3ccccc23)C(=O)N[C@@H](CO)C(=O)O)[C@@H](C)O)NC1=O | Relaxin receptor 1 (RXFP1, Homo sapiens, UniProt Q9HBX9, F76A/Y80A) | dissociation, NanoBRET |  | infinite dilution |  | koff fast phase | 0.00929 s⁻¹
O=c1nc(SCc2cc(F)cc(C(F)(F)F)c2)nc(SCc2ccc3nc(Cl)ccc3c2)[nH]1 | TOP2A | decatenation |  | 7.8 µM |  | mean decatenated DNA | 84.9%
O=c1c2ccccc2c(Cc2ccc(Cl)cc2)nn1C1CCCNCC1 (centres unmarked) | CatSper channel complex (Homo sapiens, UniProt Q7RTX7+Q86XQ3+Q8NEC5+Q96P56) | ion current, whole-cell patch clamp | human sperm | 10 µM, at -80 mV |  | inward current density | -2.5 ± 1.1 pA/pF
N[C@@H](Cc1ccccc1)C(=O)Nc1ccc2ccccc2c1 | rat neuron-specific aminopeptidase | substrate |  |  |  | Km | 20 µM
O=C(O)c1cccc(-c2noc(-c3ccccc3F)n2)c1 | Flavin reductase (NADPH) (BLVRB, Homo sapiens, UniProt P30043) |  |  |  |  | kon | 3010 M⁻¹ s⁻¹
Nc1ncnc2c1ncn2[C@@H]1O[C@H](COP(=O)(O)OP(=O)(O)O)[C@@H](O)[C@H]1O | V-type proton ATPase (Rattus norvegicus, UniProt D4A133+P62815+P63081) | single-vesicle pHrodo TIRF | rat | 200 µM, twofold excess over ATP, added: ATP 100 µM |  | reduction of acidification | ~20%
CC[C@@H]1[C@H](F)C(=O)N[C@@H]1COc1nccc2cc(C(N)=O)c(OC)cc12 | Cyclin-G-associated kinase (GAK, Homo sapiens, UniProt O14976) | ATP-site probe binding, ActivX profiling | THP-1 cell lysate | 0.04 mM, Lys2 site |  | inhibition | 3.7%
CC(C)C[C@H](NC(=O)C[C@H](O)[C@H](CC(C)C)NC(=O)[C@H](Cc1c[nH]cn1)NC(=O)CNC(=O)[C@@H](NC(=O)[C@H](C)NC(=O)[C@H](Cc1c[nH]c2ccccc12)NC(=O)[C@H](CCC(N)=O)NC(=O)[C@@H](Cc1ccccc1)NC(=O)COCCOCCNC(=O)CCC(C(=O)O)N1CCN(CC(=O)O)CCN(CC(=O)O)CCN(CC(=O)O)CC1)C(C)C)C(N)=O (some centres unmarked) [lutetium-177 labelled] |  |  | BALB/c nu/nu mice, spleen | intravenous, 750 pmol, 1 h, added: PA 300 µg |  | tissue uptake | 0.2 ± 0.1 %ID/g
Nc1nc2c(ncn2[C@@H]2O[C@H](COP(=O)(O)OP(=O)(O)O)[C@@H](O)[C@H]2O)c(=O)[nH]1 | Elongation factor Tu, chloroplastic (TUFA, Arabidopsis thaliana, UniProt P17745) | HPLC |  | 100 µM, 60 min, 25 °C, loaded, added: MgCl2 10 mM, DTT 10 mM |  | bound nucleotide per protein | ~0.9

SMILES | tested on | test | test system | setting | how to read | endpoint | value
N#Cc1ccc2c(CN3CCOCC3)cc(-c3ccc([C@@H]4CCC(=O)N4)cc3)nc2c1 | Advanced glycosylation end product-specific receptor, with DIAPH1 (AGER, Homo sapiens, UniProt Q15109) | acceptor photobleaching | HEK-293T expressing RAGE-eCFP | 5.0 µM, 60 min |  | FRET efficiency | 3.5 ± 0.2%
C[C@@H](c1ccc(-n2cnc3c(N)ncnc32)cc1)N1CCc2nn(C)c(Cc3ccccc3)c2C1=O | Bone morphogenetic protein receptor type-2 (BMPR2, Homo sapiens, UniProt Q13873) | KINOMEscan |  | 0.1 µM | reference: DMSO | remaining binding | 70%
O=C(O)Cn1cc2ccccc2n1 | USP20 ZnF-UBD domain |  |  |  |  | Kd | 715 µM
CC(C)[C@H](NC(=O)[C@H](Cc1ccc(O)cc1)NC(=O)[C@H](Cc1ccc(O)cc1)NC(=O)[C@@H]1CCCN1C(=O)[C@H](CCC(=O)O)NC(=O)[C@H](CCC(=O)O)NC(=O)[C@H](Cc1c[nH]c2ccccc12)NC(=O)[C@@H]1CCCN1C(=O)[C@@H](NC(=O)[C@H](CCC(N)=O)NC(=O)c1ccc2c(c1)C(=O)OC21c2ccc(O)cc2Oc2cc(O)ccc21)C(C)C)C(=O)N[C@H](C(=O)N[C@@H](CCCCN)C(=O)N[C@@H](CCCCN)C(=O)N[C@@H](CO)C(=O)N[C@@H](CO)C(=O)NCC(=O)NCC(N)=O)C(C)C |  |  | human, plasma | intravenous infusion, 600 mg, 8 h |  | plasma concentration | 21.1 ng/mL
O=c1nc(SCc2cc(F)cc(C(F)(F)F)c2)nc(SCc2ccc3sccc3c2)[nH]1 | TOP2A | DNA relaxation |  | 31.25 µM, replicate 1 |  | relaxed DNA | 6.1%
Nc1ncnc2c1ncn2[C@@H]1O[C@H](C[C@@H](N)CC[C@H](N)C(=O)O)[C@@H](O)[C@H]1O | O-methyltransferase (Sorghum bicolor, UniProt A0A1B6PFV1) |  |  | concentration not given, added: PTR+ |  | ΔG of binding | -6.76 kcal/mol
O=C(O)CCn1sc2ccccc2c1=O | USP20 ZnF-UBD domain |  |  |  |  | Kd | > 1000 µM
OC[C@H]1OC(O)[C@H](O)[C@@H](O)[C@@H]1O (some centres unmarked) | Hexokinase-3 (HK3, Homo sapiens, UniProt P52790, D264A/R265A) | substrate inhibitor |  |  | reference: wild type | Ki fold increase | ≥ 50 fold
NS(=O)(=O)c1ccc(NC(=O)Nc2ccc(F)cc2)cc1 | Carbonic anhydrase 12 (CA12, Homo sapiens, UniProt O43570) | stopped-flow CO2 hydration |  |  | reference: Ki CA I over Ki CA XII | selectivity ratio | 1130
NCCCCC(=O)O | Sodium- and chloride-dependent taurine transporter (SLC6A6, Homo sapiens, UniProt P31641, G62A) | binding, microscale thermophoresis |  | 7.81 µM, room temperature, added: 50 nM labelled protein | higher = more binding | normalised MST signal | -0.0708
O=C(O)c1ccc(Nc2ncc3c(n2)-c2ccc(Cl)cc2C(c2c(F)cccc2F)=NC3)cc1 | human WNK3(h) | kinase activity |  | 1 µM |  | remaining activity | 88%
Nc1nc2c(ncn2[C@@H]2O[C@H](COP(=O)(O)O)[C@@H](O)[C@H]2O)c(=O)[nH]1 | GUK1 (Homo sapiens, UniProt Q16774, R41A) | enzyme activity, NADH-coupled |  | 250 µM |  | reaction rate | 1.07 s⁻¹ and 0.925 s⁻¹ and 0.959 s⁻¹
CO[C@H]1O[C@H](COS(=O)(=O)O)[C@@H](O[C@@H]2O[C@@H](C(=O)O)[C@@H](O[C@H]3O[C@H](COS(=O)(=O)O)[C@@H](O[C@@H]4O[C@H](C(=O)O)[C@@H](O[C@H]5O[C@H](COS(=O)(=O)O)[C@@H](O)[C@H](O)[C@H]5NS(=O)(=O)O)[C@H](O)[C@H]4O)[C@H](OS(=O)(=O)O)[C@H]3NS(=O)(=O)O)[C@H](O)[C@H]2OS(=O)(=O)O)[C@H](O)[C@H]1NS(=O)(=O)O | Beta-2-glycoprotein 1, domain V (APOH, Homo sapiens, UniProt P02749, V266L) | isothermal titration calorimetry |  | concentration not given, 298 K, added: 100 mM NaCl |  | binding enthalpy ΔH | -7.07 ± 0.505 kcal/mol
CC(C)(CNC1(c2cccc(NC3=CC(=O)N(C4CCC(=O)NC4=O)C3=O)c2)CCC1)c1ccc(C(F)(F)F)c(Cl)c1 (centres unmarked) | ZBTB11/CRBN (Homo sapiens, UniProt O95625+Q96SW2) | protein degradation, degrader, HiBiT luminescence | MOLT-4 |  |  | Dmax | 39%
CCc1cnn2c(NCc3ccc[n+]([O-])c3)cc(N3CCCC[C@H]3CCO)nc12 | Bromodomain-containing protein 4 (BRD4, Homo sapiens, UniProt O60885) | 19F NMR, item: tyrosine 119 |  | 186 µM | reference: free protein | chemical shift change | -0.016 ppm
CCCCC[C@H](O)/C=C/[C@H]1[C@H](O)CC(=O)[C@@H]1C/C=C\CCCC(=O)O | Prostaglandin E2 receptor EP1 subtype (PTGER1, Homo sapiens, UniProt P34995, V337A) | IP1 accumulation, agonist | AD293 | 1 h, EP1 V337A mutant |  | Emax | 103 ± 11.1%
Nc1ncnc2c1ncn2[C@@H]1O[C@H](COP(=O)(O)CP(=O)(O)OP(=O)(O)O)[C@@H](O)[C@H]1O | P2X purinoceptor 1 (P2RX1, Homo sapiens, UniProt P51575, D97A) | saturation binding |  | 25 nM |  | specific binding | 4010 corrected cpm and 2130 corrected cpm
N#Cc1ccc2c(-c3ccncc3)c(-c3ccc(F)cc3)nn2c1 | Negative regulator of the PHO system (PHO85, Candida albicans, UniProt Q9HGY5) | kinase binding, competitor, MIB/MS competition, item: PHO85 | Candida albicans cell lysate | 1 µM | reference: DMSO | log2 fold change | 0.35
[H]/N=C(/N)NCC(=O)O | Sodium- and chloride-dependent taurine transporter (SLC6A6, Homo sapiens, UniProt P31641, L306A) | binding, microscale thermophoresis |  | 1 mM, room temperature, added: 50 nM labelled protein | higher = more binding | normalised MST signal | -0.0394
